Measurements of several laboratories.
Compare with care: the assays were run in different laboratories. ± marks the error that the study gave.

`O=C(NCCOc1ccc(F)cc1)c1ccc([C@H]2[C@@H](F)[C@@H](F)C[C@@H](F)[C@H]2F)cc1` has a hepatic clearance of 62 mL/min/kg (liver microsome stability; mouse liver microsomes; 1 µM).
The IC50 of `CNS(=O)(=O)Nc1nccc(Cc2c(C)c3ccc(Oc4ncccc4F)cc3oc2=O)c1F` is reported as > 1000 nM (HBL-100; cell viability; 7 days).
`C=CC(=O)Nc1cccc(Cn2ncc3cnc(Nc4cnn(CCOC)c4)nc32)c1`: “percent of control” 100% (PRKG2 human; binding, KINOMEscan; 100 nM; lower = stronger binding).
With `C[n+]1cccc2cc(/C=N/NC(=O)c3cccc(C(=O)N/N=C/c4ccc5c(ccc[n+]5C)c4)n3)ccc21` the ΔTm was 15.2 ± 0.3 °C (22CTA telomeric G4-DNA antiparallel; FRET melting; 1 µM, K10 buffer, DNA 0.2 µM).
Under “log2 fold change”, `CN1CCCNC(=O)c2cccc(c2)C(=O)NCCCN(C)CCCNc2cccc3c2C(=O)c2cccc(c2C3=O)NCCC1` is recorded as 1.18 (SAS; RNA-Seq, refers to: WDR81 mRNA; 1 µM, 6 h; reference: untreated cells).
The ΔTm of `CC[n+]1cccc2cc(/C=N/NC(=O)c3cccc(C(=O)N/N=C/c4ccc5c(ccc[n+]5CC)c4)c3)ccc21` is reported as 6.5 ± 0.3 °C (22CTA telomeric G4-DNA antiparallel; FRET melting; 1 µM, K10 buffer, DNA 0.2 µM).
`Nc1ncc(-c2cc(-c3cnn(CC(F)(F)F)c3)ncc2F)nc1C(=O)NC1CNCC(F)C1` (stereo not drawn) has a remaining binding of 90% (FER; KINOMEscan; 1 µM; reference: DMSO control).
For `Cc1ncsc1-c1ccc(C(C)NC(=O)C2CC(O)CN2C(=O)C(NC(=O)CCCCCCCCCCN2CCCC(Nc3ncc(Cl)c(Nc4ccccc4S(=O)(=O)C(C)C)n3)C2)C(C)(C)C)cc1` (stereo not drawn), “log2 fold change” read -1.01 (22Rv1; RNA-seq, refers to: ZFP41 mRNA; concentration not given; reference: DMSO).
The fold regulation of `CCN(CC)CC(=O)Nc1cccc(-n2cc(-c3ccc4ccc(-c5cn(-c6cccc(NC(=O)CN(CC)CC)c6)nn5)cc4c3)nn2)c1` is reported as -1.14 (RCC4; PCR angiogenesis array, refers to: SERPINE1; 5 x IC50, 2 h, normoxia; reference: untreated).
`c1ccc(-c2n[nH]cc2-c2ccnc3ccccc23)nc1`: “log2 fold change” 0.03 (RTK1 (Candida albicans); kinase binding, MIB/MS competition; Candida albicans lysate; 10 µM; reference: DMSO).
For `O=C(N/N=C/c1cc[n+](CC2CC2)c2ccccc12)c1cccc(C(=O)N/N=C/c2cc[n+](CC3CC3)c3ccccc23)n1`, the ΔTm was 19.9 ± 0.6 °C (22CTA telomeric G4-DNA antiparallel; FRET melting; 1 µM, K10 buffer, DNA 0.2 µM).
Under “log2 fold change”, `COC1CN([C@H]2CC[C@H]([C@@]3(C)Oc4c(Cl)cc(C(=O)NCc5c(SC)cc(C)[nH]c5=O)c(C)c4O3)CC2)C1` is recorded as 0.44 (RNA-seq, refers to: TSKU mouse homolog; mouse, HT-1376 xenograft, whole blood; dose not given; reference: vehicle).
`C=CC(=O)N1[C@H](c2ccc3c(c2)OCO3)c2[nH]c3ccccc3c2C[C@@H]1C(=O)N1CCN(C)CC1` gave a relative co-enrichment of 113% (human cyclin E1 N112C-3xFLAG:CDK2; co-IP with TMT proteomics, refers to: PCMT1; concentration not given, P22061; reference: wild type DMSO).
For `O=C(N/N=C/c1cc[n+](Cc2ccccc2)c2ccccc12)c1cncc(C(=O)N/N=C/c2cc[n+](Cc3ccccc3)c3ccccc23)n1`, the ΔTm was 16 ± 0.2 °C (22CTA telomeric G4-DNA antiparallel; FRET melting; 1 µM, K10 buffer, DNA 0.2 µM, with: ds26 10 µM).
With `N#CCNC(=O)c1ccc(C2CCCCC2)cc1` the hepatic clearance was 52 mL/min/kg (liver microsome stability; rat liver microsomes; 1 µM).

A few entries again:
`c1ccc(-c2n[nH]cc2-c2ccnc3ccccc23)nc1`: “log2 fold change” 0.03 (RTK1 (Candida albicans); kinase binding, MIB/MS competition; Candida albicans lysate; 10 µM; reference: DMSO).
For `O=C(N/N=C/c1cc[n+](CC2CC2)c2ccccc12)c1cccc(C(=O)N/N=C/c2cc[n+](CC3CC3)c3ccccc23)n1`, the ΔTm was 19.9 ± 0.6 °C (22CTA telomeric G4-DNA antiparallel; FRET melting; 1 µM, K10 buffer, DNA 0.2 µM).
